Experimental data of several laboratories.
Parts stem from different laboratories: compare values within a part only. “And” joins repeats or separate records; there may be more than shown.
Sequence of UniProt P51812 (whole entry, looked up): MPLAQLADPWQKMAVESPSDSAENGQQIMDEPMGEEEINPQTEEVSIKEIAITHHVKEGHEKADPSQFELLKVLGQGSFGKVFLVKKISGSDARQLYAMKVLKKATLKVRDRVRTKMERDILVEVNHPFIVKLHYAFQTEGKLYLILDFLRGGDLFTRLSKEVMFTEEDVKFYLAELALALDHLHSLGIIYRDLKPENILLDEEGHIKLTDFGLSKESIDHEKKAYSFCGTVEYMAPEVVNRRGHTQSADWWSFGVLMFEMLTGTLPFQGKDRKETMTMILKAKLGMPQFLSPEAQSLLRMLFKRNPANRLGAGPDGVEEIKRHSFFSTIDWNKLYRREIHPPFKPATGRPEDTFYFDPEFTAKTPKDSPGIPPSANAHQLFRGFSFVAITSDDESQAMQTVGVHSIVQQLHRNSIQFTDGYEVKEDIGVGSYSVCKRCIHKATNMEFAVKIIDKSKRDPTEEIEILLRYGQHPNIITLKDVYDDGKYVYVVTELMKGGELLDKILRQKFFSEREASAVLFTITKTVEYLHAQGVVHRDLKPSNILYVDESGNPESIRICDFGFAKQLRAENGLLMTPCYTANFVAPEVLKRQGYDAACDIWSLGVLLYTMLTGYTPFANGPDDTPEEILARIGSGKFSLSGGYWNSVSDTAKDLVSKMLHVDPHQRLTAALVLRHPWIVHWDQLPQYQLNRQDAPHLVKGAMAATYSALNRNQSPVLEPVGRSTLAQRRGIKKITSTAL
Sequence of UniProt P42680 (whole entry, looked up): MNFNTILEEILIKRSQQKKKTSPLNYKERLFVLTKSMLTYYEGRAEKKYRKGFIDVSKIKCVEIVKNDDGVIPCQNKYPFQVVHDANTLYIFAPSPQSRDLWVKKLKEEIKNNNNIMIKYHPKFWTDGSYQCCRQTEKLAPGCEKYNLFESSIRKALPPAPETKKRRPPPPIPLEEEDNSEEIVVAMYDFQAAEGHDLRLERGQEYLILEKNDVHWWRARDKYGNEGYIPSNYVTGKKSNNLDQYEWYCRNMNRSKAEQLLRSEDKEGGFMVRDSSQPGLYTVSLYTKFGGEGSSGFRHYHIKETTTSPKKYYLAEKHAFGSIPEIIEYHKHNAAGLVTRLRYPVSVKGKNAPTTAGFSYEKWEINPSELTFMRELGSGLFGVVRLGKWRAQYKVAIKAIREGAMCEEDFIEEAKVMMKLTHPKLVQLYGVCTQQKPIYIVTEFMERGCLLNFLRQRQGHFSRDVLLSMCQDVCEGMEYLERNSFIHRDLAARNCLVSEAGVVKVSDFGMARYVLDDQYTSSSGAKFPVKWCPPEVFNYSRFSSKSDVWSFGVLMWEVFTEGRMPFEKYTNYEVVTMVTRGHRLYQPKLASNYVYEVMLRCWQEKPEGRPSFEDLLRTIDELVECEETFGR
Sequence of UniProt Q04759 (whole entry, looked up): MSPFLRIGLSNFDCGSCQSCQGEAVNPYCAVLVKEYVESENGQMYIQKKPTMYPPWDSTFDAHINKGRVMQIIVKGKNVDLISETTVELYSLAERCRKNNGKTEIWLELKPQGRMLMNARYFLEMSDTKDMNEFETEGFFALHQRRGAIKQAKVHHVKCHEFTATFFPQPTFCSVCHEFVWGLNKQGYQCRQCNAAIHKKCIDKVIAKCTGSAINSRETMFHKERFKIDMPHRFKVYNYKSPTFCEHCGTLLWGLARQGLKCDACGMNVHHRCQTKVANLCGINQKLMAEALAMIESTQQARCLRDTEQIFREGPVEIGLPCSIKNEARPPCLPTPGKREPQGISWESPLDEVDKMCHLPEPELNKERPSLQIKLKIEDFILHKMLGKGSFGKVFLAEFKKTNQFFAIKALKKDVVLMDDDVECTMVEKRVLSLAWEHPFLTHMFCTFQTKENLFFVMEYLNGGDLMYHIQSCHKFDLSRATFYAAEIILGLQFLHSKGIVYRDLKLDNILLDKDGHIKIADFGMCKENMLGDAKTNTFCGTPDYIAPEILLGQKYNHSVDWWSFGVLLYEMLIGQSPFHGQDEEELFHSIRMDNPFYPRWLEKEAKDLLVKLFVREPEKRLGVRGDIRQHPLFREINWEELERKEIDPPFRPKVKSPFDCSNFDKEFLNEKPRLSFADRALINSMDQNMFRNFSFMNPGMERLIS
Sequence of UniProt Q14012 (whole entry, looked up): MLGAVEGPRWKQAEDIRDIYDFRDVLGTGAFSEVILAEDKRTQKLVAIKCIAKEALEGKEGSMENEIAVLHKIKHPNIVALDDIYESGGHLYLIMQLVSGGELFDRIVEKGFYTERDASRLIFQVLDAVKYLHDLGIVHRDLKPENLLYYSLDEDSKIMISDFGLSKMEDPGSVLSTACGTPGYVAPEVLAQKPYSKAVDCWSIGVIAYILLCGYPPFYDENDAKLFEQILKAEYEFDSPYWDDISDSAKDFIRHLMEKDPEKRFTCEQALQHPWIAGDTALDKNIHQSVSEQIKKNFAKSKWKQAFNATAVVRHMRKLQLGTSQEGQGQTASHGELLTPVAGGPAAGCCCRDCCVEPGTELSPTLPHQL
Sequence of UniProt P42684 (whole entry, looked up): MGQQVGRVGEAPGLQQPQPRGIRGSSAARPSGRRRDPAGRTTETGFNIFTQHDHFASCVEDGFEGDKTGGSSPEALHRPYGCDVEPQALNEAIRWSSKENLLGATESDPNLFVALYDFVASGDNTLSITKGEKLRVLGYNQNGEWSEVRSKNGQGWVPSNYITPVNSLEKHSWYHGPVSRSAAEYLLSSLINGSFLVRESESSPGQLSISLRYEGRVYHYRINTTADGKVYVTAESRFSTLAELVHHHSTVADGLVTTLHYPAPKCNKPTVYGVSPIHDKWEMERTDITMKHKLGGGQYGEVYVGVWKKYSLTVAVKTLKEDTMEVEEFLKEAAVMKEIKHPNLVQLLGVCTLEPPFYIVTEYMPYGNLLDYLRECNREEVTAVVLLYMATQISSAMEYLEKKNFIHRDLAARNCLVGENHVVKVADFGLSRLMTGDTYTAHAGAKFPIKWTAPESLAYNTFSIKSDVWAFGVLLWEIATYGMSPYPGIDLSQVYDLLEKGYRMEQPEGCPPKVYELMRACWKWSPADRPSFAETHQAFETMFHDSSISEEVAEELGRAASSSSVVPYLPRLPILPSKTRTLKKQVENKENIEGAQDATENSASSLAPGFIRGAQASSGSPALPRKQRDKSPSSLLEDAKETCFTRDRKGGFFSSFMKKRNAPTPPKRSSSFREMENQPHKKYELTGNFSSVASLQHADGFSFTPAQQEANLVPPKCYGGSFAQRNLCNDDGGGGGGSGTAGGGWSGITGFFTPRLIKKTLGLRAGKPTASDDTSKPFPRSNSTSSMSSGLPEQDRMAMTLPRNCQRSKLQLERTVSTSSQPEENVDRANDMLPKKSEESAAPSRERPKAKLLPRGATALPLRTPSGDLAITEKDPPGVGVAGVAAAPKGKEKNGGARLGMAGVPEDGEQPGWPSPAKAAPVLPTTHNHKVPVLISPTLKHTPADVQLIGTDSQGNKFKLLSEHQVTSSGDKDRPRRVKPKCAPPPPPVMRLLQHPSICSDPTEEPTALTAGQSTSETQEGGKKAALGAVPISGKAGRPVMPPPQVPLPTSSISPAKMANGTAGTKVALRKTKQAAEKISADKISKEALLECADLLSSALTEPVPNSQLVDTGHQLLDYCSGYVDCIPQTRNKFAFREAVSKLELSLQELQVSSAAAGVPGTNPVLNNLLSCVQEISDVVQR
Sequence of UniProt P49674 (whole entry, looked up): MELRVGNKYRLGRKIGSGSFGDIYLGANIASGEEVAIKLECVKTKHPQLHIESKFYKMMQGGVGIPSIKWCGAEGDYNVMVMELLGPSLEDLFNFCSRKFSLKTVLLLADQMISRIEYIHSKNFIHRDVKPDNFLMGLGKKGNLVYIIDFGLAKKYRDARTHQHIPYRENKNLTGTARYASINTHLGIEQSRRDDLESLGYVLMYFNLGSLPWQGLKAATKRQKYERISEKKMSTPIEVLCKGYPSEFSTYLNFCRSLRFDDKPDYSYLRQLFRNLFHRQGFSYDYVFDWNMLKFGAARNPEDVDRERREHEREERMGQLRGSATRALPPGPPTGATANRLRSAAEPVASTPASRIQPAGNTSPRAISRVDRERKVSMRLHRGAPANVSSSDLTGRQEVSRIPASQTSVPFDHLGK
Sequence of UniProt Q8N5S9 (whole entry, looked up): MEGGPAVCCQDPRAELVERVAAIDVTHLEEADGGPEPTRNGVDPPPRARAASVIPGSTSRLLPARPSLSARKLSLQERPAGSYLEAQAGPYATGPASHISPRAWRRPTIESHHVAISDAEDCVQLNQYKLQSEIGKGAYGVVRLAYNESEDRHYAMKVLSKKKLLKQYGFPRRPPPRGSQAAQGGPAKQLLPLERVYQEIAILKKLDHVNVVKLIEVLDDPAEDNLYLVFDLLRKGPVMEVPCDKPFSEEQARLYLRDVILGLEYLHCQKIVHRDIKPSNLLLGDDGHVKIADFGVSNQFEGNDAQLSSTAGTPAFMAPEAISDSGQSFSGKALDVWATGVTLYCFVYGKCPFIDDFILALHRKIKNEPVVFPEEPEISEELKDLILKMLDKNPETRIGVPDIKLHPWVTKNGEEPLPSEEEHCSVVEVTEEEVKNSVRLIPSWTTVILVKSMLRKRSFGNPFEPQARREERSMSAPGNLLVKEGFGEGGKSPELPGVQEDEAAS

Study 1
Target: Calcium/calmodulin-dependent protein kinase type II subunit alpha (CAMK2A, Homo sapiens, UniProt Q9UQM7)
Sequence of UniProt Q9UQM7 (whole entry, looked up): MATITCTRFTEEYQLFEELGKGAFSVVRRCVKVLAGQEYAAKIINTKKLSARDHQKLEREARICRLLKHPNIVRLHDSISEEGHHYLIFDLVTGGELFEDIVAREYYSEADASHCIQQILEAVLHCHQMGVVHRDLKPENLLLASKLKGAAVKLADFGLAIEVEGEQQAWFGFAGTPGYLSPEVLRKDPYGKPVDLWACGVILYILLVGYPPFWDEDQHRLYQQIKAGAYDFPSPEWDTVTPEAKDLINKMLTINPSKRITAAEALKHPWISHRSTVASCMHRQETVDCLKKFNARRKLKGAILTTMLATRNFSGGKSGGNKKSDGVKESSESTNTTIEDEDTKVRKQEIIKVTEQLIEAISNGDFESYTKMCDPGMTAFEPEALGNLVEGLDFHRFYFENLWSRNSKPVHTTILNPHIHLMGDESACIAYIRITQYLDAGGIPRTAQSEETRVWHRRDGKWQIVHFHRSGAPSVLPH
Read-out: enzyme activity
Mode: inhibitor
Concentration: 10 µM
NC(=O)CC[C@@H]1NC(=O)[C@H](Cc2ccccc2)NC(=O)[C@H](Cc2ccc(O)cc2)NC(=O)[C@@H](N)CSSC[C@@H](C(=O)N2CCC[C@H]2C(=O)N[C@@H](CCCN=C(N)N)C(=O)NCC(N)=O)NC(=O)[C@H](CC(N)=O)NC1=O gave an inhibition of 1%.
With Cc1c(N)nc([C@H](CC(N)=O)NC[C@H](N)C(N)=O)nc1C(=O)N[C@H](C(=O)N[C@H](C)[C@@H](O)[C@H](C)C(=O)N[C@H](C(=O)NCCc1nc(-c2nc(C(=O)NCCC[S+](C)C)cs2)cs1)[C@@H](C)O)[C@@H](O[C@@H]1O[C@@H](CO)[C@@H](O)[C@H](O)[C@@H]1O[C@H]1O[C@H](CO)[C@@H](O)[C@H](OC(N)=O)[C@@H]1O)c1cnc[nH]1 the inhibition was -8%.
With CCN1C[C@]2(C)CC[C@H](OC)[C@@]34C1[C@]1(OCO[C@@]15C[C@H](OC)[C@H]1C[C@]3(O)[C@@H]5[C@H]1OC)[C@@H](OC(C)=O)[C@H]24 the inhibition was -11%.
COc1cc2c(cc1OC)[C@@H]1C(=O)c3ccc4c(c3O[C@@H]1CO2)C[C@H](C(C)C)O4 gave an inhibition of -50%.
For CCN(CC)CCOC(=O)C(O)(c1ccccc1)c1ccccc1, the inhibition was 6%.

Study 2
Structure (SMILES): [N-]=[N+]=CC(=O)CC[C@H](N)C(=O)O
Host: C57BL/6 CES1-/- mouse, both sexes
Route: intravenous
Dose: 1 mg/kg
For day 11: body weight read 87% and 90% and 91% and 92% and 88% and 93%.
For day 15: body weight read 78% and 77% and 74% and 85% and 80% and 82%.
It gave 68% and 70% and 78% for body weight (day 17).
It gave 96% and 100% and 97% for body weight (day 9).
day 16 — body weight: 85% and 70% and 77% and 78%.

Study 3
Target: Diamine acetyltransferase 1 (Homo sapiens, UniProt P21673)
Mode: inhibitor
Concentration: 10 µM
Relative to: control
Residues (P21673 1-171): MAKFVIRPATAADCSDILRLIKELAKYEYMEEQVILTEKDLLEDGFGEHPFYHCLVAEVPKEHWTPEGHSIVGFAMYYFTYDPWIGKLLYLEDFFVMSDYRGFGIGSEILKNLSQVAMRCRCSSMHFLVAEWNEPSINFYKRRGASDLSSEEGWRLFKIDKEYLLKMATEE
c1c2c(cc3c1OCO3)-c1cc3ccc4c(c3c[n+]1CC2)OCO4 has a remaining activity of 100%.
COC(=O)c1ccccc1C(=O)OC gave a remaining activity of 93.7%.
For C=CCc1cc(OC)c2c(c1)OCO2, the remaining activity was 101%.
CCOC1c2c(ccc3c2OCO3)-c2ccc3cc4c(cc3c2N1C)OCO4 (centres unmarked) gave a remaining activity of 113%.
C[C@H]1CCC/C=C/[C@@H]2C[C@H](O)C[C@H]2[C@H](O)/C=C/C(=O)O1 gave a remaining activity of 99.8%.

Study 4
Cell line: HEK-293T/ACE2
Method: Hoechst nuclei count
Concentration: concentration not given
Time: 16 (unit not given)
Relative to: vehicle
With COc1ccc(-n2nc(C(N)=O)c3c2C(=O)N(c2ccc(N4CCCCC4=O)cc2)CC3)cc1 the viability was 98.8%.
The viability of CC(=O)O[C@H]1Cc2ccccc2N(C(N)=O)c2ccccc21 is reported as 97.4%.
CC(C[N+](C)(C)C)OC(N)=O (centres unmarked) gave a viability of 100%.
For NCCCC(N)(C(=O)O)C(F)F (centres unmarked), the viability was 107%.
CN(N=O)C(=O)N[C@@H](C=O)[C@@H](O)[C@H](O)[C@H](O)CO gave a viability of 98.7%.
For COC(=O)N[C@H](C(=O)N1CCC[C@H]1c1nc(-c2ccc(-c3ccc(-c4c[nH]c([C@@H]5CCCN5C(=O)[C@@H](NC(=O)OC)C(C)C)n4)cc3)cc2)c[nH]1)C(C)C, the viability was 104%.
CN(C)C/C=C/C(=O)Nc1cc2c(Nc3ccc(F)c(Cl)c3)ncnc2cc1O[C@H]1CCOC1 has a viability of 87.9%.
With CC(=O)OCC(=O)[C@H]1CC[C@H]2[C@@H]3CCC4=CC(=O)CC[C@]4(C)[C@H]3CC[C@]12C the viability was 103%.
With Cc1cc(/C=C/C#N)cc(C)c1Nc1ccnc(Nc2ccc(C#N)cc2)n1 the viability was 36.4%.
With COC(=O)CCc1ccc(OCC(O)CNC(C)C)cc1 (centres unmarked) the viability was 99.7%.
CC[C@]1(O)C[C@@H]2CN(CCc3c([nH]c4ccccc34)[C@@](C(=O)OC)(c3cc4c(cc3OC)N(C)[C@H]3[C@@](O)(C(=O)OC)[C@H](OC(C)=O)[C@]5(CC)C=CCN6CC[C@]43[C@@H]65)C2)C1 has a viability of 0.77%.
The viability of C[C@H](Cn1cnc2c(N)ncnc21)OCP(=O)(O)O is reported as 103%.
The viability of Cc1ccsc1C(=CCCN1CCC[C@@H](C(=O)O)C1)c1sccc1C is reported as 97%.
C[C@H]1CNCCc2ccc(Cl)cc21 gave a viability of 96.8%.
With O=C(O)[C@@H](S)[C@@H](S)C(=O)O the viability was 106%.
The viability of NC(=O)c1cn(Cc2c(F)cccc2F)nn1 is reported as 107%.
For COc1cc2nc(N3CCN(C(=O)C4COc5ccccc5O4)CC3)nc(N)c2cc1OC (centres unmarked), the viability was 97.8%.
O=C(O)C[C@H](O)C[C@H](O)/C=C/c1c(C2CC2)nc2ccccc2c1-c1ccc(F)cc1 gave a viability of 111%.
For CC1=NS(=O)(=O)c2cc(Cl)ccc2N1, the viability was 97.5%.
With CC(=O)OC(C)C[N+](C)(C)C (centres unmarked) the viability was 105%.
The viability of CCc1cc2c(cc1N1CCC(N3CCOCC3)CC1)C(C)(C)c1[nH]c3cc(C#N)ccc3c1C2=O is reported as 101%.
The viability of C[C@@H](c1ncncc1F)[C@](O)(Cn1cncn1)c1ccc(F)cc1F is reported as 98.2%.
With C[C@H](CCC(=O)NCCS(=O)(=O)O)[C@H]1CC[C@H]2[C@@H]3[C@@H](O)C[C@@H]4C[C@H](O)CC[C@]4(C)[C@H]3CC[C@]12C the viability was 105%.
The viability of CC(=O)OCC(CCn1cnc2cnc(N)nc21)COC(C)=O is reported as 101%.
For CC(C)n1c(/C=C/C(O)CC(O)CC(=O)O)c(-c2ccc(F)cc2)c2ccccc21 (centres unmarked), the viability was 103%.

Study 5
Compound: COC[C@H]1OC(=O)c2coc3c2[C@@]1(C)C1=C(C3=O)[C@@H]2CCC(=O)[C@@]2(C)C[C@H]1OC(C)=O
Concentration: 0.5 µM
It gave 95.5% for remaining activity (CSNK1E (Homo sapiens, UniProt P49674); enzyme activity, inhibitor; relative to: control).
RPS6KA3 (Homo sapiens, UniProt P51812); enzyme activity, inhibitor; relative to: control — remaining activity: 87.5%.
For CLK2 (Homo sapiens, UniProt P49760); enzyme activity, inhibitor; relative to: control: remaining activity read 88%.
MUSK (Homo sapiens, UniProt O15146); enzyme activity, inhibitor; relative to: control — remaining activity: 94.8%.
ABL2 (Homo sapiens, UniProt P42684); kinase activity; with: ATP 10 µM; relative to: untreated — remaining activity: 94.9%.
For TEC (Homo sapiens, UniProt P42680); enzyme activity, inhibitor; relative to: control: remaining activity read 118%.
For PAK1 (Homo sapiens, UniProt Q13153); enzyme activity, inhibitor; relative to: control: remaining activity read 95.3%.
For CAMKK1 (Homo sapiens, UniProt Q8N5S9); enzyme activity, inhibitor; relative to: control: remaining activity read 92.1%.
JAK1 (Homo sapiens, UniProt P23458); enzyme activity, inhibitor; relative to: control — remaining activity: 90.9%.
The remaining activity was 90.7% (CLK1 (Homo sapiens, UniProt P49759); enzyme activity, inhibitor; relative to: control).
For FLT1 (Homo sapiens, UniProt P17948); enzyme activity, inhibitor; relative to: control: remaining activity read 85.9%.
It gave 95.4% for remaining activity (PAK6 (Homo sapiens, UniProt Q9NQU5); enzyme activity, inhibitor; relative to: control).
The remaining activity was 104% (CAMK1 (Homo sapiens, UniProt Q14012); enzyme activity, inhibitor; relative to: control).
For PRKCZ (Homo sapiens, UniProt Q05513); enzyme activity, inhibitor; relative to: control: remaining activity read 99.2%.
For PRKCQ (Homo sapiens, UniProt Q04759); enzyme activity, inhibitor; relative to: control: remaining activity read 94.7%.

Study 6
Organism: Sarcocystis neurona
Read-out: parasite growth
Concentration: 10 µM
Time: 96 h
Notes: second screen
Relative to: untreated
For Cc1ccc(-c2nc3ccc(C)cn3c2CC(=O)N(C)C)cc1, “log2 fold change” read 2.12.
CC(C)/N=c1\cc2n(-c3ccc(Cl)cc3)c3ccccc3nc-2cc1Nc1ccc(Cl)cc1 — result for “log2 fold change”: -4.3.
CNC1=Nc2ccc(Cl)cc2C(c2ccccc2)=[N+]([O-])C1 — result for “log2 fold change”: 0.27.
CCOC(=O)C1(c2ccccc2)CCN(CCC(C#N)(c2ccccc2)c2ccccc2)CC1 — result for “log2 fold change”: 0.0334.
Under “log2 fold change”, C[C@]12CCC(=O)C[C@@H]1CC[C@@H]1[C@@H]2CC[C@@]2(C)[C@H]1CC[C@]2(C)O is recorded as -0.0036.
For CC(C)CC(N(C)C)C1(c2ccc(Cl)cc2)CCC1 (centres unmarked), “log2 fold change” read 0.47.
Under “log2 fold change”, C[C@]12Cc3c[nH]nc3C[C@@H]1CC[C@@H]1[C@@H]2CC[C@@]2(C)[C@H]1CC[C@]2(C)O is recorded as -0.0662.
